Experimental data from different studies.
Lines come from different studies, so protocols differ. Values joined by “and” are separate records of one study, mostly repeats; a detail may differ. Numbers after ± are the reported error.

Structure (SMILES)	target or system	assay	test system	setting	how to read	endpoint	value
CCn1cc(-c2cc(Cn3ccoc3=N)cc3c2CCN([C@@H](C)c2cc(OC)ccn2)C3=O)c(C(F)(F)F)n1	LUDLU-1	cell growth, inhibitor	–	120 h	–	EC50	0.604 µM
Nc1ncnc2c1ncn2[C@@H]1O[C@H](CO)[C@@H](O)[C@H]1O	activated human T cells	measured: adenine	–	10 µM	reference: DMSO	log2 fold change	0.5 and 0.66 and 0.374
C[C@H]1[C@@H](O)O[C@@H]2O[C@@]3(C)CC[C@H]4[C@H](C)CC[C@@H]1[C@@]24OO3	THP-1	annexin V/PI flow cytometry, measured: annexin V+/PI+	–	0.2 µM, 24 h	–	late apoptotic cells	1.1%
Cn1cc(-c2ccc(-c3cncc(Cl)c3N3CCC4(CCNC4=O)CC3)cc2)cn1	COLO 205	gene expression, microarray, measured: SERPINH1 mRNA	–	concentration not given, 2 h	reference: untreated cells	log2 fold change	2.01
COC(=O)c1cc(C(C)=NNc2nc(-c3ccc4c(c3)OCCCO4)cs2)ccc1O	T47D	flow cytometry	–	40 µM, 72 h	–	cells in S phase	66.3 ± 1.9%
CCCCc1nc(Cl)c(CO)n1Cc1ccc(-c2ccccc2-c2nn[nH]n2)cc1	human PBMC	RNA-seq, measured: CD163L1 mRNA	–	10 µg/mL, 24 h	reference: untreated control	log2 fold change	-2.85
Cc1ccc(Nc2nccc(N(C)c3ccc4c(C)n(C)nc4c3)n2)cc1S(N)(=O)=O	iCell Cardiomyocytes (hiPSC-derived)	xCELLigence Cardio impedance	–	concentration not given, 2 h	reference: control	beat amplitude	104%
Nc1ncnc2c1ncn2[C@@H]1O[C@H](COP(=O)(O)OP(=O)(O)OP(=O)(O)O)[C@@H](O)[C@H]1O	–	binding, equilibrium dialysis LC-MS	–	5 µM, thermostabilized A2AR-BRIL construct	reference: no-protein control, direction not given	z-scored log2 fold change	-0.441
CCn1c(-c2nonc2N)nc2c(C#CC(C)(C)O)ncc(OC[C@H]3CCCNC3)c21	iCell Cardiomyocytes (hiPSC-derived)	xCELLigence Cardio impedance	–	concentration not given, 2 h	reference: control	beat rate	84.9%
CC#CC(=O)N1CCC[C@H]1c1nc(-c2ccc(C(=O)Nc3ccccn3)cc2)c2c(N)nccn12	TMD8 RAC2 knockout	calcium flux, FLIPR	–	concentration not given, 2 h preincubation	–	inhibition	98.4%
COc1ccc2c(c1)NC(=O)CN2c1nc(C)nc2ccccc12	A549	flow cytometry	–	0.003 µM, 24 h	–	cells in G0/G1 phase	3.74%
CCN(CC)CCNC(=O)c1c(C)[nH]c(/C=C2\C(=O)Nc3ccc(F)cc32)c1C	iCell Cardiomyocytes (hiPSC-derived)	CellTiter-Glo	–	concentration not given, 24 h	reference: control	ATP level	104%
Cc1nc(NC(=O)N2CCC[C@H]2C(N)=O)sc1-c1ccnc(C(C)(C)C(F)(F)F)c1	SK-OV-3	resazurin growth rate inhibition	–	72 h	–	GR50	> 5 µM
O=C(/C=C/C=C/C=C/C1CCCCC1)NC1=C[C@@](O)(/C=C/C=C/C=C/C(=O)NC2=C(O)CCC2=O)[C@@H]2O[C@@H]2C1=O	cal29	cell growth, inhibitor, CellTiter-Glo luminescence	–	78 h	reference: day 0 cell count	GI50	13.1 µM
CC1(C)COc2ccc(F)cc2CN2c3nc4c(cnn4cc3OC[C@H]2C(F)F)C(=O)N1	Ba/F3 EML4-ALK variant 1 S1206F	cell viability	–	–	–	IC50	12.3 nM
Cn1cc(-c2ccc(F)c(C(F)(F)F)c2)nc1C1CCN(c2ncnc3[nH]ncc23)CC1	SK-OV-3	ATP	–	0.01 µM, 4 days, 3D gellan gum culture	reference: untreated	relative cell number	99.2%
Cn1cc(Nc2nccc(-c3ccc4c(c3)CN(C3COC3)CC[C@H]4NC(=O)c3cn(C(C)(C)C)nn3)n2)cn1	human B cells	–	–	100 nM, 64 h, stimulation-downregulated genes, with: CD40L, anti-IgM, IL-4	–	number of downregulated genes	18
COc1ccc(Cc2nccc3ccccc23)cc1OC	A549	mitochondrial oxygen consumption, Seahorse XF96	–	10 µM	–	inhibition	64%
CCCCN1CCN(c2ccc3nc(-c4ccc5nc(-c6cc(OC)ccc6OC)[nH]c5c4)[nH]c3c2)CC1	KM12	SRB	–	10 µM, 48 h	–	growth percent	107%
C=C(c1ccc(OC)cc1)[C@@H]1c2cc(Oc3cc(C[C@H]4c5cc(OC)c(OC)cc5CCN4C)ccc3O)c(OC)cc2CCN1C	3T3-L1	adipocyte lipid accumulation, Nile Red staining	–	15 µM	–	inhibition	39.5 ± 0.6%
O=C(Nc1c[nH]nc1-c1nc2ccc(CN3CCOCC3)cc2[nH]1)NC1CC1	ARPE-19 HiBiT fibulin-3	HiBiT luminescence	–	1.66 µM	–	fibulin-3 level	-29.8%
O=C(NOCC1CC1)c1ccc(F)c(F)c1Nc1ccc(I)cc1Cl	iCell Cardiomyocytes (hiPSC-derived)	xCELLigence Cardio impedance	–	concentration not given, 2 h	reference: control	beat amplitude	97.8%

Structure (SMILES)	target or system	assay	test system	setting	how to read	endpoint	value
O=C1N(Cc2ccccc2Cl)c2ccccc2C12NN=C(c1ccccc1)S2 (stereo not shown)	TNBC cells	MTT	–	10 µM, 24 h	–	viability loss	70 to 90%
Cc1cc(Nc2ncc(Cl)c(Nc3ccccc3S(=O)(=O)C(C)C)n2)c(OC(C)C)cc1C1CCNCC1	CLB-BAR	phosphoproteomics LC-MS/MS, measured: SLC35E1 phosphorylation	–	200 nM, 60 min	reference: untreated	log2 fold change	-3.41
CN(C)C(=O)c1cc2cnc(Nc3ccc(N4CCNCC4)cn3)nc2n1C1CCCC1	MCF7/luciferase, wild type	cell proliferation	–	–	–	maximum inhibition	79.1%
C=CC1=C(C)c2cc3[n-]c(cc4nc(cc5[n-]c(cc1n2)c(C)c5C=C)C(C)=C4CCC(=O)O)c(CCC(=O)O)c3C.[Zn+2]	SH-SY5Y	RNA-seq, measured: CCN1 mRNA	–	5 µM, 5 h	reference: untreated cells	fold change	1.68
COc1cnc2cccc(N3CCc4c(cc(Cn5ccnc5C)cc4-c4cn(C)nc4C(F)(F)F)C3=O)c2c1	HuH-1	cell growth, inhibitor	–	120 h	–	EC50	> 30 µM
O=c1[nH]nc(OCCCc2ccc(Cl)cc2)c(NCc2cccnc2)c1Br	HEK293T	RNA-seq, measured: HSPH1 mRNA	–	10 µM, 6 h	reference: vehicle	log2 fold change	-0.181
c1cnc2c(c1)ccc1cccnc12	differentiated THP-1	–	–	25 µg/mL	reference: albendazole and praziquantel	IL-4 mRNA level	decreased
CC(C)NCC(O)c1ccc(O)c(O)c1 (stereo not shown)	mouse ventricular cardiomyocytes	–	–	dose not given, 0.251 s	–	sarcomere length	1.8 µm
c1ccc2[nH]ccc2c1	HCT-8	RNA-seq, measured: CHST3	–	concentration not given	–	mRNA level, LS mean	139 counts per million
CCn1cc(-c2cc(Cn3ccnc3)cc3c2CCN([C@H](c2cc(OC)ccn2)C2CC2)C3=O)c(C(F)(F)F)n1	Ramos	cell growth, inhibitor	–	120 h	–	EC50	8.62 µM
c1ccc(-c2cccc(Cc3nccc4ccccc34)c2)cc1	A549	mitochondrial oxygen consumption, Seahorse XF96	–	10 µM	–	inhibition	0%
CCn1c(-c2nonc2N)nc2cncc(CNC3CCNCC3)c21	SK-OV-3	ATP	2D monolayer culture	0.1 µM, 4 days	reference: untreated	relative cell number	114%
C=CC(=O)N1CCC[C@@H](c2ccc(C(N)=O)c3[nH]ccc23)C1	TMD8 RAC2 knockout	calcium flux, FLIPR	–	1 h preincubation	–	IC50	68 nM
Cn1c(Nc2ccc(C(F)(F)F)cc2)nc2cc(Oc3ccnc(-c4ncc(C(F)(F)F)[nH]4)c3)ccc21	iCell Cardiomyocytes (hiPSC-derived)	xCELLigence Cardio impedance	–	concentration not given, 2 h	reference: control	beat amplitude	96.6%
CCCCCCNC(=O)n1cc(F)c(=O)[nH]c1=O	SW-403	LC-MS, measured: Cer(d18:1/14:0)	–	0.3 µM	–	ceramide level	4.08 ± 0.34 pmol/mg protein
Cc1[nH]c(/C=C2\C(=O)Nc3ccc(F)cc32)c(C)c1C(=O)NC[C@H](O)CN1CCOCC1	iCell Cardiomyocytes (hiPSC-derived)	xCELLigence Cardio impedance	–	concentration not given, 2 h	reference: control	beat rate	90.8%
O=C(O)c1ccc(-c2c[nH]c3ncc(-c4ccccc4)cc23)cc1C1CCCC1	SK-OV-3	ATP	2D monolayer culture	1 µM, 4 days	reference: untreated	relative cell number	115%
O=C(NC1CCNCC1)c1[nH]ncc1NC(=O)c1c(Cl)cccc1Cl	iCell Cardiomyocytes (hiPSC-derived)	CellTiter-Glo	–	concentration not given, 24 h	reference: control	ATP level	94.5%
C[C@@H](CO)C(=O)O	–	binding, equilibrium dialysis LC-MS	–	5 µM, thermostabilized A2AR-BRIL construct	reference: no-protein control, direction not given	z-scored log2 fold change	0.783
Nc1cccc2c1CN(C1CCC(=O)NC1=O)C2=O (stereo not shown)	bone marrow CD138+ myeloma cells	XTT	–	2 µM, phenol red-free RPMI	–	viability	8%
CS(=O)(=O)CCNCc1ccc(-c2ccc3ncnc(Nc4ccc(OCc5cccc(F)c5)c(Cl)c4)c3c2)o1	iCell Cardiomyocytes (hiPSC-derived)	xCELLigence Cardio impedance	–	concentration not given, 2 h	reference: control	beat amplitude	103%

For quick reference, copied from above:
Structure (SMILES)	target or system	assay	test system	setting	how to read	endpoint	value
CCn1c(-c2nonc2N)nc2c(C#CC(C)(C)O)ncc(OC[C@H]3CCCNC3)c21	iCell Cardiomyocytes (hiPSC-derived)	xCELLigence Cardio impedance	–	concentration not given, 2 h	reference: control	beat rate	84.9%
CC#CC(=O)N1CCC[C@H]1c1nc(-c2ccc(C(=O)Nc3ccccn3)cc2)c2c(N)nccn12	TMD8 RAC2 knockout	calcium flux, FLIPR	–	concentration not given, 2 h preincubation	–	inhibition	98.4%
COc1ccc2c(c1)NC(=O)CN2c1nc(C)nc2ccccc12	A549	flow cytometry	–	0.003 µM, 24 h	–	cells in G0/G1 phase	3.74%
CCN(CC)CCNC(=O)c1c(C)[nH]c(/C=C2\C(=O)Nc3ccc(F)cc32)c1C	iCell Cardiomyocytes (hiPSC-derived)	CellTiter-Glo	–	concentration not given, 24 h	reference: control	ATP level	104%
Cc1nc(NC(=O)N2CCC[C@H]2C(N)=O)sc1-c1ccnc(C(C)(C)C(F)(F)F)c1	SK-OV-3	resazurin growth rate inhibition	–	72 h	–	GR50	> 5 µM
O=C(/C=C/C=C/C=C/C1CCCCC1)NC1=C[C@@](O)(/C=C/C=C/C=C/C(=O)NC2=C(O)CCC2=O)[C@@H]2O[C@@H]2C1=O	cal29	cell growth, inhibitor, CellTiter-Glo luminescence	–	78 h	reference: day 0 cell count	GI50	13.1 µM
CC1(C)COc2ccc(F)cc2CN2c3nc4c(cnn4cc3OC[C@H]2C(F)F)C(=O)N1	Ba/F3 EML4-ALK variant 1 S1206F	cell viability	–	–	–	IC50	12.3 nM
